Results from different studies.
Numbered parts are unrelated; each lists some results of a single study. Several values in a cell are separate wells, animals, samples, runs or records.
Chain of UniProt Q00535 (whole entry, looked up): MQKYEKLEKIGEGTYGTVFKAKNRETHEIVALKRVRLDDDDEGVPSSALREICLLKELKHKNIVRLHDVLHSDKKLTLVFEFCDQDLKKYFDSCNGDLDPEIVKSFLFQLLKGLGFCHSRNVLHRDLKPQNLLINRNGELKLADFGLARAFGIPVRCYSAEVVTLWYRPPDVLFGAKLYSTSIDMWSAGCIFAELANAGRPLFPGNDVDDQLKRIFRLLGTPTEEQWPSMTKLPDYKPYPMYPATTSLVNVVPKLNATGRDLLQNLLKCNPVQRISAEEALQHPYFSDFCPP
Chain of UniProt P45984 (whole entry, looked up): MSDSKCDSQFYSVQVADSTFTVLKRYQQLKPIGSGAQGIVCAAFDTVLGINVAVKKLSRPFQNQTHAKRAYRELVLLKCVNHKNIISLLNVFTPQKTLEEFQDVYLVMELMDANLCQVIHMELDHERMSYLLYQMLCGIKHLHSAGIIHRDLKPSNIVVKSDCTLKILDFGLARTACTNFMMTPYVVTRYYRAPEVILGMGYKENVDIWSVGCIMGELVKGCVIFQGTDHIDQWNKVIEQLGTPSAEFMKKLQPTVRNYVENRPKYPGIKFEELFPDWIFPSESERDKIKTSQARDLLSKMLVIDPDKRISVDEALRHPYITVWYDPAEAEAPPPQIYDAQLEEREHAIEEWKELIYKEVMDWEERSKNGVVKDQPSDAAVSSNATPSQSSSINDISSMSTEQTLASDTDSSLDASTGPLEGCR
Chain of UniProt P53778 (whole entry, looked up): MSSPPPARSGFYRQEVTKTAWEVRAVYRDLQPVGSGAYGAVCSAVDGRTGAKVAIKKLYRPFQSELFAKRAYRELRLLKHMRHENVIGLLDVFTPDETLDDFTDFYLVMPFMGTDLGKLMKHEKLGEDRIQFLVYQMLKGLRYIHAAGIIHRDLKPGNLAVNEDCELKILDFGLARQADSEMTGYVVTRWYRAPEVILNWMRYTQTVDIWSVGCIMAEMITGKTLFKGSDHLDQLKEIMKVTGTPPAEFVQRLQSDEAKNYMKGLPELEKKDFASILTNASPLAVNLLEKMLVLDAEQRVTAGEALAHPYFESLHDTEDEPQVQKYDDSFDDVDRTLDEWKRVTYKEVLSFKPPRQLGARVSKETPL
Chain of UniProt P37173 (whole entry, looked up): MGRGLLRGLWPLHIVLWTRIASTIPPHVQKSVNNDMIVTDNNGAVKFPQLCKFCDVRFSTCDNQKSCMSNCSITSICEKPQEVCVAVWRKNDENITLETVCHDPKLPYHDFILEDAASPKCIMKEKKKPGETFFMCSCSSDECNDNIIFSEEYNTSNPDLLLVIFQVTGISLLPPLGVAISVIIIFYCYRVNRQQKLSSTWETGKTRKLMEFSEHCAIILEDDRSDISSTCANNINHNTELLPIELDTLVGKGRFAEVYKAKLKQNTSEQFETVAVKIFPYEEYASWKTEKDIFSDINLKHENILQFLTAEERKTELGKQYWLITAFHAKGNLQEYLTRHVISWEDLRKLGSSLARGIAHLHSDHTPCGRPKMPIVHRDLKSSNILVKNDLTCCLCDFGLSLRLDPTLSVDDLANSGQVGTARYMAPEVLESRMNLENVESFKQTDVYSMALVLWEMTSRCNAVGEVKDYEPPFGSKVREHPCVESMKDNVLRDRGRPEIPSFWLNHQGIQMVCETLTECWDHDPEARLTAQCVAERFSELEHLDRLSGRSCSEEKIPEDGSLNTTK
Chain of UniProt P11802 (whole entry, looked up): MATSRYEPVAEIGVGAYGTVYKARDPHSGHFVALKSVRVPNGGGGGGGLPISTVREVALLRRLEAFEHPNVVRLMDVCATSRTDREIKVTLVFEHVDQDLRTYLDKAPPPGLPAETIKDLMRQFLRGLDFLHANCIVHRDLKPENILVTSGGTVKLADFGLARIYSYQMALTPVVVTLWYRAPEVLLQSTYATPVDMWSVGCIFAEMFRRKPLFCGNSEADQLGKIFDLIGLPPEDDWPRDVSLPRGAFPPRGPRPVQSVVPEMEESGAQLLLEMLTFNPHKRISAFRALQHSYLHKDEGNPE
Chain of UniProt Q9P2K8 (whole entry, unmodified, looked up): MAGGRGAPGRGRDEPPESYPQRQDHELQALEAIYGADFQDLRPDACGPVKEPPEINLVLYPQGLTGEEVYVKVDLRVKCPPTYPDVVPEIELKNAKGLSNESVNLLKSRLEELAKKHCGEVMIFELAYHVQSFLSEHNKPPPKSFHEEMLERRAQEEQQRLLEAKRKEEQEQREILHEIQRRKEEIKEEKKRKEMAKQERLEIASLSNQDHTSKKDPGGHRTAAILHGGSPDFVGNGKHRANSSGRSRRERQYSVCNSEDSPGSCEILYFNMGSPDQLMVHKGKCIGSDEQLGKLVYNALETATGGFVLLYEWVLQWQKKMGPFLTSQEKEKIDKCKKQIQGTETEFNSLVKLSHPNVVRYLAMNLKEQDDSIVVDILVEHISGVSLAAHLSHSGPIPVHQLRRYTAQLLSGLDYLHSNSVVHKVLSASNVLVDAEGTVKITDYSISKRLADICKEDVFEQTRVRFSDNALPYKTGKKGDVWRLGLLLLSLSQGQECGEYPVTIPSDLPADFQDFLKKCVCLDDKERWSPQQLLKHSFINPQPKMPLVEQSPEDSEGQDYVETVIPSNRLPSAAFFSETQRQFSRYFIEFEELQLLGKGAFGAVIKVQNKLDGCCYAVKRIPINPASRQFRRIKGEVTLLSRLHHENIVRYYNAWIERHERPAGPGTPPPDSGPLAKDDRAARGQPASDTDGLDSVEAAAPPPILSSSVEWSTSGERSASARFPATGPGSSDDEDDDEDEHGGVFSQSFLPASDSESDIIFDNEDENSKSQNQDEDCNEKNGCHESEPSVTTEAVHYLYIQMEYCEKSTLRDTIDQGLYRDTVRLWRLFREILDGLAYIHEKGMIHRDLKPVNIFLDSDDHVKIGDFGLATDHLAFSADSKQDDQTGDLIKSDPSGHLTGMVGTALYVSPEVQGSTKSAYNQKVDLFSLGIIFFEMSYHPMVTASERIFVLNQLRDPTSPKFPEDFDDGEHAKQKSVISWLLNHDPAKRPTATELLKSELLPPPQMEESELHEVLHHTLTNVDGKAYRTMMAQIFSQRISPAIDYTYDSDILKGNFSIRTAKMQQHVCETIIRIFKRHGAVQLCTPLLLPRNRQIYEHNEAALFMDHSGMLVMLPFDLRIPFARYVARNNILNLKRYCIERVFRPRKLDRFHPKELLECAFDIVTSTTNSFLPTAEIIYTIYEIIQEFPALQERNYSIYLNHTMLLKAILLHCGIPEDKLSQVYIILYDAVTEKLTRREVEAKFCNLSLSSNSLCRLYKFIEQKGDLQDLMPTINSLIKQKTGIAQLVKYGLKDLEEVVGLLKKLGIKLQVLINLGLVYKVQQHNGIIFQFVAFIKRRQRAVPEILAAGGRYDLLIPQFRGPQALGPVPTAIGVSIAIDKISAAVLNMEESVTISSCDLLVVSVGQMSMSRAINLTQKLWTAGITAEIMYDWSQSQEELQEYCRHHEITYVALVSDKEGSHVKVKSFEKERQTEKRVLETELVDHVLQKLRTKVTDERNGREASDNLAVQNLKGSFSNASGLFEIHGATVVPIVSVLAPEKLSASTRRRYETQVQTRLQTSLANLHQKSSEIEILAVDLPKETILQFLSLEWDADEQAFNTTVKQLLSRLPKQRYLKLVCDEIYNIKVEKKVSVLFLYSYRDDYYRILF
Chain of UniProt Q13557 (whole entry, looked up): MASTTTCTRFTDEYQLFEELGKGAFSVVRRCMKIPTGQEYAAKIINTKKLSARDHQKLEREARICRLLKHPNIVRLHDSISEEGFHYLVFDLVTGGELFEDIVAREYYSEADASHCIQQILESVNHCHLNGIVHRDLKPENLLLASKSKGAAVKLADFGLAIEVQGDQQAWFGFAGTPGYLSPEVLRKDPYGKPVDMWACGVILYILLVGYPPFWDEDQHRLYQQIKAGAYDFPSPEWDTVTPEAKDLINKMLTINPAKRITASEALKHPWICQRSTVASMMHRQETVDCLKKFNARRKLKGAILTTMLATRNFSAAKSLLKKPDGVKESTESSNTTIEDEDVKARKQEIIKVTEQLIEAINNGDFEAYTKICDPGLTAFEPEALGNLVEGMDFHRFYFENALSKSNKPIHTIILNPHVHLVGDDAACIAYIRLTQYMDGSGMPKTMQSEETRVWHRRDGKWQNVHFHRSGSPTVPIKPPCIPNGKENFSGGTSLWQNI
Chain of UniProt Q96RR4 (whole entry, looked up): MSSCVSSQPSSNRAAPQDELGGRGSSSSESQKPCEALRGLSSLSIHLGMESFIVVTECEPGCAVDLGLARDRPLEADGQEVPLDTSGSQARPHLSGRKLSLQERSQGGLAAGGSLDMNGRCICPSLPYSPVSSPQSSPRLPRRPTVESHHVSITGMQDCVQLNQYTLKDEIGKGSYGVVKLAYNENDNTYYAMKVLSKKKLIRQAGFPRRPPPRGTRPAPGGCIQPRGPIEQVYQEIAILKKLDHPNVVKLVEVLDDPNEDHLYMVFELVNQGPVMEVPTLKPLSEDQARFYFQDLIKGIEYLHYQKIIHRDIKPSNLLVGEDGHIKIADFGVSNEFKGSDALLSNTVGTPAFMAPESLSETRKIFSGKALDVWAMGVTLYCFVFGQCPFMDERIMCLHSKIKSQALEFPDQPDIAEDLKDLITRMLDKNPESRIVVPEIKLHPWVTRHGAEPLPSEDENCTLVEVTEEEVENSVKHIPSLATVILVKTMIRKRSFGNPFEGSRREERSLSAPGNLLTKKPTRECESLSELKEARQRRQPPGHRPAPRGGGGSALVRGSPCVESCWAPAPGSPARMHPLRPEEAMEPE

Study 1
Structure (SMILES): CC(C)n1cnc(-c2ccc(F)cc2)c1-c1ncc(C(=O)Nc2ccc(N3CCN(C)CC3)cc2)[nH]1
Technique: Phase 2a trial
Host: idiopathic pulmonary fibrosis patients
For measured: gamma-glutamyltransferase increased; 60 mg once daily, grade 4 maximum intensity: “patients with adverse events” read 0%.
For measured: weight increased; 30 mg once daily, grade 1 maximum intensity: “patients with adverse events” read 0%.
It gave 0% for “patients with adverse events” (measured: back pain; 60 mg once daily, grade 4 maximum intensity).
It gave 0% for “patients with adverse events” (measured: neutrophil count increased; 60 mg once daily, grade 5 maximum intensity).
For measured: weight increased; dose not given, grade 5 maximum intensity, all arms: “patients with adverse events” read 0%.
It gave 0% for “patients with adverse events” (measured: urinary tract infection; 60 mg once daily, grade 3 maximum intensity).
For measured: tri-iodothyronine increased; 60 mg once daily, grade 3 maximum intensity: “patients with adverse events” read 0%.
It gave 0% for “patients with adverse events” (measured: blood alkaline phosphatase increased; 60 mg once daily, grade 3 maximum intensity).
It gave 0% for “patients with adverse events” (measured: urinary tract infection; dose not given, grade 4 maximum intensity, all arms).
For measured: reticulocyte count increased; 30 mg once daily, grade 5 maximum intensity: “patients with adverse events” read 0%.
The “patients with adverse events” was 0% (measured: muscular weakness; 60 mg once daily, grade 5 maximum intensity).
It gave 0% for “patients with adverse events” (measured: bile acids increased; 60 mg once daily, grade 5 maximum intensity).

Study 2
Cell line: mouse MPNST tumor cells
Technique: high-content immunofluorescence imaging
Measured: nuclear SOX9
Tested at: 10 µM
Time: 12 h
Notes: mean of 2 replicates
Relative to: DMSO control
Direction: higher = more nuclear SOX9
`O=C(NC[C@H](O)CN1CCc2ccccc2C1)c1cc(NC2COC2)ncn1`: “nuclear SOX9 intensity” 106 % of DMSO.
`NNC(=O)c1sc2cccc(Cl)c2c1Cl`: “nuclear SOX9 intensity” 101 % of DMSO.
Under “nuclear SOX9 intensity”, `Cc1nnc(NS(=O)(=O)c2ccc(N)cc2)s1` is recorded as 94.5 % of DMSO.
For `CN1C(=O)CC(c2ccccc2)C1=O` (stereo not drawn), “nuclear SOX9 intensity” read 76 % of DMSO and 104 % of DMSO.
`Cc1noc(C)c1-c1cc(O)cc(C(O)c2ccccc2)c1` (stereo not drawn): “nuclear SOX9 intensity” 95.3 % of DMSO.
`C=CC1=C(C(=O)O)N2C(=O)[C@@H](NC(=O)/C(=N\O)c3csc(N)n3)[C@H]2SC1` — result for “nuclear SOX9 intensity”: 96.4 % of DMSO.
`CCOc1nc2c(N)ncnc2n1CC`: “nuclear SOX9 intensity” 103 % of DMSO.
Under “nuclear SOX9 intensity”, `CCN(CC)CCOCCOC(=O)C(CC)(CC)c1ccccc1` is recorded as 114 % of DMSO.
`NS(=O)(=O)c1cc2c(cc1C(F)(F)F)NC(Cc1ccccc1)NS2(=O)=O` (stereo not drawn): “nuclear SOX9 intensity” 107 % of DMSO.
`CC(C)NCC(O)c1ccc(NS(C)(=O)=O)cc1` (stereo not drawn) — result for “nuclear SOX9 intensity”: 138 % of DMSO.
Under “nuclear SOX9 intensity”, `Cc1nnn(-c2ccc(-c3ccc(C4(C(=O)O)CC4)cc3)cc2)c1NC(=O)O[C@H](C)c1ccccc1` is recorded as 79.2 % of DMSO.

Study 3
SMILES: NCCNc1ncc(C(N)=O)c(Nc2cccc(C(F)(F)F)c2)n1
Observed: enzyme activity
Mode: inhibitor
Tested at: 0.5 µM
Relative to: control
The remaining activity was 97.1% (Death-associated protein kinase 1 (DAPK1, Homo sapiens, UniProt P53355)).
The remaining activity was 89.9% (cGMP-dependent protein kinase 1, isoform beta (PRKG1, Homo sapiens, UniProt Q13976)).
Calcium/calmodulin-dependent protein kinase type II subunit delta (CAMK2D, Homo sapiens, UniProt Q13557) — remaining activity: 92.5%.
For Cyclin-dependent kinase 5, with p25 (CDK5, Homo sapiens, UniProt Q00535): remaining activity read 92.4%.
The remaining activity was 96.2% (Calcium/calmodulin-dependent protein kinase kinase 2 (CAMKK2, Homo sapiens, UniProt Q96RR4)).
The remaining activity was 104% (Serine/threonine-protein kinase Nek2 (NEK2, Homo sapiens, UniProt P51955)).
The remaining activity was 49.3% (Serine/threonine-protein kinase STK11 (STK11, Homo sapiens, UniProt Q15831)).
It gave 98.6% for remaining activity (cAMP-dependent protein kinase catalytic subunit alpha (PRKACA, Homo sapiens, UniProt P17612)).
For TGF-beta receptor type-2 (TGFBR2, Homo sapiens, UniProt P37173): remaining activity read 114%.
Inhibitor of nuclear factor kappa-B kinase subunit beta (IKBKB, Homo sapiens, UniProt O14920) — remaining activity: 101%.
For Cyclin-dependent kinase 4, with cyclin D1 (CDK4, Homo sapiens, UniProt P11802): remaining activity read 108%.
The remaining activity was 60.9% (Protein kinase C alpha type (PRKCA, Homo sapiens, UniProt P17252)).
Inhibitor of nuclear factor kappa-B kinase subunit epsilon (IKBKE, Homo sapiens, UniProt Q14164) — remaining activity: 95.8%.
It gave 83.9% for remaining activity (STE20/SPS1-related proline-alanine-rich protein kinase (STK39, Homo sapiens, UniProt Q9UEW8)).
It gave 94.1% for remaining activity (Mitogen-activated protein kinase 9 (MAPK9, Homo sapiens, UniProt P45984)).

Study 4
SMILES: COCCOc1nc(-c2ccc(Cl)nc2)nc2c1CN(C(=O)c1ncn3ccccc13)CC2
Observed: cell-free assay
Technique: competition with immobilised ligand
Tested at: 0.1 µM
The remaining binding was 73% (Mitogen-activated protein kinase kinase kinase kinase 4 (MAP4K4, Homo sapiens, UniProt O95819)).
It gave 100% for remaining binding (eIF-2-alpha kinase GCN2, C-terminal kinase domain (EIF2AK4, Homo sapiens, UniProt Q9P2K8, S808G)).
For Dual specificity tyrosine-phosphorylation-regulated kinase 2 (DYRK2, Homo sapiens, UniProt Q92630): remaining binding read 100%.
For Serine/threonine-protein kinase TNNI3K (TNNI3K, Homo sapiens, UniProt Q59H18): remaining binding read 100%.
It gave 100% for remaining binding (Cyclin-dependent kinase 5 (CDK5, Homo sapiens, UniProt Q00535)).
Tyrosine-protein kinase ABL1, phosphorylated (ABL1, Homo sapiens, UniProt P00519, M351T) — remaining binding: 100%.
Mitogen-activated protein kinase 12 (MAPK12, Homo sapiens, UniProt P53778) — remaining binding: 72%.

Repeated from above (study 2):
`O=C(NC[C@H](O)CN1CCc2ccccc2C1)c1cc(NC2COC2)ncn1`: “nuclear SOX9 intensity” 106 % of DMSO.
`NNC(=O)c1sc2cccc(Cl)c2c1Cl`: “nuclear SOX9 intensity” 101 % of DMSO.
Under “nuclear SOX9 intensity”, `Cc1nnc(NS(=O)(=O)c2ccc(N)cc2)s1` is recorded as 94.5 % of DMSO.
For `CN1C(=O)CC(c2ccccc2)C1=O` (stereo not drawn), “nuclear SOX9 intensity” read 76 % of DMSO and 104 % of DMSO.
`Cc1noc(C)c1-c1cc(O)cc(C(O)c2ccccc2)c1` (stereo not drawn): “nuclear SOX9 intensity” 95.3 % of DMSO.
`C=CC1=C(C(=O)O)N2C(=O)[C@@H](NC(=O)/C(=N\O)c3csc(N)n3)[C@H]2SC1` — result for “nuclear SOX9 intensity”: 96.4 % of DMSO.
`CCOc1nc2c(N)ncnc2n1CC`: “nuclear SOX9 intensity” 103 % of DMSO.
